Experimental data from different studies.
Parts stem from different laboratories: compare values within a part only. Positions count from the first letter of the parent shown.

Block 1
Target: CCNB1, cyclin fold, Cln2 fusion (human)
Technique: yeast growth competition, sequencing
Sample: yeast
Setting: weak parent motif
Relative to: not given
Reading: higher = stronger binding
Parent: GMNC docking peptide (human); KNAKRNLSSEFAN
`KNAKRNLSSRFAN [E10R]` — result for “normalised enrichment score”: 0.747.
`KNAKNNLSSEFAN [R5N]`: “normalised enrichment score” 0.454.
`KNAKRNLTSEFAN [S8T]` — result for “normalised enrichment score”: -0.533.
Under “normalised enrichment score”, `KNPKRNLSSEFAN [A3P]` is recorded as -0.591.
`KNMKRNLSSEFAN [A3M]`: “normalised enrichment score” 0.384.
Under “normalised enrichment score”, `KNRKRNLSSEFAN [A3R]` is recorded as 0.199.
`KNAKRILSSEFAN [N6I]` — result for “normalised enrichment score”: 0.149.
For `KNAIRNLSSEFAN [K4I]`, “normalised enrichment score” read 0.489.
`KNAKRGLSSEFAN [N6G]` — result for “normalised enrichment score”: 0.149.
Under “normalised enrichment score”, `KNAKRNLSSEFFN [A12F]` is recorded as 0.055.
Under “normalised enrichment score”, `KNAKRNLSSETAN [F11T]` is recorded as 0.174.
For `KNAKRNLSSEFEN [A12E]`, “normalised enrichment score” read 0.241.
`KNAKRNLSSHFAN [E10H]` — result for “normalised enrichment score”: 0.329.
Under “normalised enrichment score”, `KNAKRNRSSEFAN [L7R]` is recorded as 0.419.
For `KNAKTNLSSEFAN [R5T]`, “normalised enrichment score” read 0.189.
For `KNAKRNLFSEFAN [S8F]`, “normalised enrichment score” read 0.337.
`KNIKRNLSSEFAN [A3I]`: “normalised enrichment score” 0.407.
`KNAKRMLSSEFAN [N6M]` — result for “normalised enrichment score”: 0.0666.
For `KNCKRNLSSEFAN [A3C]`, “normalised enrichment score” read 0.252.
For `KNARRNLSSEFAN [K4R]`, “normalised enrichment score” read 0.178.
`KNAKRNLSLEFAN [S9L]` — result for “normalised enrichment score”: -0.0521.
For `KNAHRNLSSEFAN [K4H]`, “normalised enrichment score” read -0.0447.

Block 2
Target: PABPC1L2, full length, GST fusion (mouse, UniProt A0ABA7IW68)
Technique: RNAcompete
Molecule type: RNA
Sample: in vitro
Concentration: 20 nM
Setting: 7-mer, probes averaged, single round
Relative to: mean of 7-mers
Reading: higher = stronger binding
Residues (chain): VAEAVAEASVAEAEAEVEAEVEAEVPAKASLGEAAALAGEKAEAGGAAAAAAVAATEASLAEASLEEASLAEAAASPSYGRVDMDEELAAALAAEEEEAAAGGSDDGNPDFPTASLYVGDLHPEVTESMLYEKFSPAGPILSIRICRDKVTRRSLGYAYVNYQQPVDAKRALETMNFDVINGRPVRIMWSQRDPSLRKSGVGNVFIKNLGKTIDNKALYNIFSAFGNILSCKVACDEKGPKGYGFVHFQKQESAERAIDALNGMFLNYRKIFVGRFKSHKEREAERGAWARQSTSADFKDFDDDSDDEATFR
With `GGGGGGG` the 7-mer Z-score was 0.296.
`AAUUUAA` gave a 7-mer Z-score of 0.416.
For `AAAAACA`, the 7-mer Z-score was 23.1.
`UUAAGGG` gave a 7-mer Z-score of 0.216.
For `GGGGGCA`, the 7-mer Z-score was 0.717.
For `AACUGAU`, the 7-mer Z-score was 0.211.
With `CAAUGAC` the 7-mer Z-score was -0.0283.
With `CAAGCUG` the 7-mer Z-score was -0.128.
The 7-mer Z-score of `UUCUACG` is reported as -0.166.
For `CCUGUUC`, the 7-mer Z-score was -0.438.
`GAAUACA` has a 7-mer Z-score of 0.157.
For `UGCCUAC`, the 7-mer Z-score was -0.253.
With `AUCCCCU` the 7-mer Z-score was -0.429.
`AGUUCUC` gave a 7-mer Z-score of -0.389.
`UGCCGAU` gave a 7-mer Z-score of -0.171.
`CGGAAAU` gave a 7-mer Z-score of 0.182.
`AGUAACU` gave a 7-mer Z-score of -0.0989.
For `GGGGUGA`, the 7-mer Z-score was 0.303.
For `GGACCCU`, the 7-mer Z-score was -0.11.
For `AUCACUG`, the 7-mer Z-score was -0.0699.
For `GUAAUCU`, the 7-mer Z-score was -0.271.
The 7-mer Z-score of `AUGUCCA` is reported as -0.151.
With `CCUGUUU` the 7-mer Z-score was -0.561.

Block 3
Target: RNA binding protein fox-1 homolog 2, RRM domain, GST-SBP tag (RBFOX2, Homo sapiens, UniProt O43251-10, residues 100-194)
Technique: RNA Bind-n-Seq
Molecule type: RNA
Sample: in vitro
Concentration: 365 nM
Setting: natural RNA segment, single round, ends assumed
Relative to: no-protein control
Reading: higher = stronger binding
Construct (chain): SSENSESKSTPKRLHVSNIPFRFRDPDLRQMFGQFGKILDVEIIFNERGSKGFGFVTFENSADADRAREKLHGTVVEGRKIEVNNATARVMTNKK
`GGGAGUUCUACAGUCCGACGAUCUUUGUUUACUAAAUACCUGUGAAGAAAUACCAUUAAAAAACUAUUUGGUUCUGAAUUCUUACUAGAAGGUGGUCUUUUGAAGUUAGUCCUUUCGGUACUUCUCAGAUGCCUGGAAUUCUCGGGUGCCAA` — result for “RBNS enrichment (R)”: 0.622.
Under “RBNS enrichment (R)”, `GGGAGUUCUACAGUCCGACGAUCAAUUUUAUACAAAUCUUUUAUAGAAGAAUUGCCCAUGUCAAUAUAUGUUCAGAGUUAAAUAUUAACCAUAAAUUCGCAGCAAUGCUGUAUUGUGUCAUUGAAGUUCCCAGUGGAAUUCUCGGGUGCCAA` is recorded as 0.549.
`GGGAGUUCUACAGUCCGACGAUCAACAUAGAUUAAAUUUGUUUAGCACUAAACUAUCCCUAGAGUAAAUUUUUAUGCUUGACAAGUUGUAUUUUAUAUAUUAGAAAUAAGAUGCCACACAGGGCAAUCCAGAUUGGAAUUCUCGGGUGCCAA` — result for “RBNS enrichment (R)”: 0.699.
Under “RBNS enrichment (R)”, `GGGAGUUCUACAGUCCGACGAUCUCGAGGCUGUUCUUCAAGAAUUAAAAUUGAAGUGAAAAUUUAAACAAAAAUAAAAGAAUUUAGCAAACCCAUGUGUCUGGUUGCUUGAACUACACCCUCAGAGCAAGAGGUGGAAUUCUCGGGUGCCAA` is recorded as 1.12.
Under “RBNS enrichment (R)”, `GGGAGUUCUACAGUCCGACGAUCAAGUGUUCUUUGAUUUUGGCUUUGAGGCUGCCAUUUCUGGAAUAAGGGGGGAUGGGAAACAGCUGACUUCAAUUACCGUGCUGUAUAUUACCGUGCUGUAUACCUAUCUAUGGAAUUCUCGGGUGCCAA` is recorded as 0.432.
Under “RBNS enrichment (R)”, `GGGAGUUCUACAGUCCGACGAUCGUUAUGGGUGGAUCGCAGCUCUUCGCCAUCAAGUGCAUUCAGGAUUAUUCCUGGGAGGUUGCUUAAAGCUGAAAUAGAACUGAAAUGCAGUUGGUAGACUAGCCAAACAUUGGAAUUCUCGGGUGCCAA` is recorded as 1.36.
For `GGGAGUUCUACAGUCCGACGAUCAAAAAAACUAAUUGUGAUUUCUAGUCUUGCAAAGCUGUAUGCAGUUAGAUGAUGUGACCUCUAAUAUUUAUCUAAUAAAUAUGUAUUCAGAUGAAACCUGUAUAUUAGGUUGGAAUUCUCGGGUGCCAA`, “RBNS enrichment (R)” read 0.394.
For `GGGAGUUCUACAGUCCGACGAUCACUUUUCUUCAUGGGGCAAAGUCUGCCUCUUCUGCCAGGCAGUUCCCAUUUGCCCCUGUCCAGACUGUUUCUUUUGGCUUAGACCAUAAUCCUCUGCUGCCCGGGGCAUUUGGAAUUCUCGGGUGCCAA`, “RBNS enrichment (R)” read 0.239.

Block 4
Target: Interferon regulatory factor 5, full length, phosphomimetic (IRF5, Homo sapiens, UniProt Q13568-2, residues 1-514, S451D/S453D/S456D/S462D)
Technique: protein-binding microarray
Molecule type: double-stranded DNA, one strand shown
Sample: in vitro
Concentration: 940 nM top
Setting: 60-bp whole probe
With: salmon DNA 0.4 mg/ml
Relative to: random background probes
Reading: higher = stronger binding
All sequences stand within: GCCTAGCAC … GTCTTGATTCGCTTGACGCTGCTG
For `TTAGACCTGAGTTTCGATTAGTGCTAG`, “fitted relative affinity” read 7.38 z-score.
For `GACGGTATCGGGTTCGGGACGTGCTAG`, “fitted relative affinity” read 4.17 z-score.
`GTGAGTTTGACATCTTCATCAGTGCTA`: “fitted relative affinity” -0.0179 z-score.
`GACGATTTCAGACTAGAGACGTGCTAG`: “fitted relative affinity” -0.213 z-score.
`TTAGAACTAAGTATCGATTAGTGCTAG`: “fitted relative affinity” 3.93 z-score.
For `CTCACCCAGTCCAGACACCCGTGCTAG`, “fitted relative affinity” read 0.217 z-score.
`GACGATTTCGGGTTTCGAGGCGTGCTA` — result for “fitted relative affinity”: 2.56 z-score.
`GAGGGACTGGGTTTCGGGACGTGCTAG`: “fitted relative affinity” 2.89 z-score.
`TTAGAATTCAGACTGGATTAGTGCTAG` — result for “fitted relative affinity”: -0.874 z-score.
`TCATTTTTTTTAATTGAACTGTGCTAG` — result for “fitted relative affinity”: 0.844 z-score.
`TCGTGGATTGCGACCCCTAGGTGCTAG` — result for “fitted relative affinity”: -0.439 z-score.
`GACGGAGTGGGGTTTCGGGACGTGCTA` — result for “fitted relative affinity”: 1.96 z-score.
`GGCGATTTCAGACTGGAGACGTGCTAG`: “fitted relative affinity” -0.652 z-score.
For `GACGATTTCAGACTGGAGGCGTGCTAG`, “fitted relative affinity” read -0.546 z-score.
For `TTAGGTTTCCTGTCCCTTTAGTGCTAG`, “fitted relative affinity” read 1.23 z-score.
For `TTAGGTCTCATTATCCTTTAGTGCTAG`, “fitted relative affinity” read 1.94 z-score.
Under “fitted relative affinity”, `AAACAAGTCAATGGCCTTTCGTGCTAG` is recorded as -0.356 z-score.
For `GACGATTTCAGTTCCGATACGTGCTAG`, “fitted relative affinity” read 1.76 z-score.
`TCAGTTGTGATTCTTTCACTGTGCTAG` — result for “fitted relative affinity”: 0.142 z-score.

For quick reference, copied from above (block 2):
For `GGGGGCA`, the 7-mer Z-score was 0.717.
For `AACUGAU`, the 7-mer Z-score was 0.211.
With `CAAUGAC` the 7-mer Z-score was -0.0283.
With `CAAGCUG` the 7-mer Z-score was -0.128.
The 7-mer Z-score of `UUCUACG` is reported as -0.166.
For `CCUGUUC`, the 7-mer Z-score was -0.438.
`GAAUACA` has a 7-mer Z-score of 0.157.
